Measured values pooled from the literature.
Each numbered part is a random draw from the data of one study; scales do not carry over between parts.

Series 1
Target: PABPC1L2, full length, GST fusion (mouse, UniProt A0ABA7IW68)
Method: RNAcompete
Molecule type: RNA
Sample: in vitro
Tested at: 20 nM
Setting: 7-mer, probes averaged, single round
Baseline: mean of 7-mers
Direction: higher = stronger binding
Endpoint: 7-mer Z-score
Residues (chain): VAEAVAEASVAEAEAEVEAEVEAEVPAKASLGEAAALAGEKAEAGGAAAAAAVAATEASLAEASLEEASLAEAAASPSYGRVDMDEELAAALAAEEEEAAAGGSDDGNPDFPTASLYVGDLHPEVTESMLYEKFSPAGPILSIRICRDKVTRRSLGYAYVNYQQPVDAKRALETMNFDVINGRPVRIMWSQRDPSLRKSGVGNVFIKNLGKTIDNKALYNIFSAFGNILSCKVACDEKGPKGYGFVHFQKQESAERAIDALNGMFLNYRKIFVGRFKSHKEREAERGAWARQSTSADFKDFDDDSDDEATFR
AAACCAC: 0.436
CCAGGGC: -0.186
CAAGCCU: -0.266
UACGGUG: -0.108
GCCGCGU: -0.3
AUGAAUU: -0.0446
CUAAGAU: -0.133
AAAACAC: 6.18
GAUGGUA: -0.0754
AGGACAA: 0.577
GCCAAUG: -0.128
UAAUGCU: -0.191
CAAACAU: 1.41
AAAAUCG: 4.73
AUCAAUG: -0.0573
UCUAUCC: -0.32
AGUCGCU: -0.329
CGGAAUA: 0.218
AUCGUGC: -0.238
UGUUCCG: -0.385
ACCUAGA: 0.0406
GUUACAG: -0.112
CUGCAAU: -0.135
UGCGCCC: -0.391
AAAAUGU: 4.73

Series 2
Target: RNA binding protein fox-1 homolog 2, RRM domain, GST-SBP tag (RBFOX2, Homo sapiens, UniProt O43251-10, residues 100-194)
Method: RNA Bind-n-Seq
Molecule type: RNA
Sample: in vitro
Tested at: 365 nM
Setting: natural RNA segment, single round, ends assumed
Baseline: no-protein control
Direction: higher = stronger binding
Endpoint: RBNS enrichment (R)
Construct (chain): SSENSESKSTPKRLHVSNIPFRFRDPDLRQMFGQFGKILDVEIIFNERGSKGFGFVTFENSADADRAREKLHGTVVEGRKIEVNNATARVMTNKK
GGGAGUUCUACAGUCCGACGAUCUCACAUCAACAUUUGUAAAAUUGAUGUGUUAUAGUGGAAAAUAACAUAUAGAUUAAACAAAAUUUUUAUCUUUUUUCAAGAAUAUAGCUGGCUAUCUUUAAGAAAGAUGAUGGAAUUCUCGGGUGCCAA: 1.13
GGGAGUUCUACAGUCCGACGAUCUCAUUAUGAAAGACAAAAAGCAUCACAAUAAGGCUUCCAGGUAGCCCUGUUCCCUAAUAGAAACAUUCCCCUUGUUUUCCAGCAGUGGGUGGCUUCCUCGAACGAUUAAAUGGAAUUCUCGGGUGCCAA: 0.549
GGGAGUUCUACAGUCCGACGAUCAACUUCAUCACAGUGUUGAUGUUGGACACAUAGAUGGUGAUGGCAAAGGUUUAGAACACAUUAUUUUCAAAGACUAAAUCUAAAACCCAGAGUAAACAUCAAUGCUCAGAUGGAAUUCUCGGGUGCCAA: 0.446
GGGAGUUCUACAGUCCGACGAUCACUCUUGUUCCUAACGACAACGUGGCUAUGUGCAAUGGAGACAAACUGGACUGUGAGUCUCUUGGUUCAGUAUUAGGUUCACUUUAUUUAUACUGUAAGUUAUUUUACUUUGGAAUUCUCGGGUGCCAA: 0.698
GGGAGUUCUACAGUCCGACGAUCAGUUUUUAAUGGCCAUUGUGUAUGAUUUUGAUGCACAACUAGUUAAAAGCCUUUCAUACCAGUCAGUAUUCCCAGCCUUGAGCGCACGCGCGCACACACACACACACAUAUGGAAUUCUCGGGUGCCAA: 0.756
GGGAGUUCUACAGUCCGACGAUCGCUGGGGGAGGGAGGAGUCCACGCAUCCUGAUGCUGCCUGGAAGCUUAUUUUCCCGUGGCCAGGACGCAUUUCUCUGAGUGGAAACAGGUUCUUGCAUGUGGAUGUGUGUUGGAAUUCUCGGGUGCCAA: 7.19
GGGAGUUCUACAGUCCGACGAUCCUUUCAGUUAUCCAUAAAUCUAAGCAUAACUGCUACCAUUUAUACAUGAGAAAAUGACAGAGGAACUAAUAUAAGAGCAGAUCUUGACCCUUGCUGGGUCACUAUAAUUCUGGAAUUCUCGGGUGCCAA: 0.291
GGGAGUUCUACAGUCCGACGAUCUAAUAUGGCGCUCCUGAUCUAUCUUACUCAAGUGCCCUCCCAUAUGUAUACCCCAACAUCUUUUCCAUCUUAAUCCAGCAUCGGGCCAUUCUCAAUCCCUGGUAAUCACCUGGAAUUCUCGGGUGCCAA: 1.22

Series 3
Target: Fragile X messenger ribonucleoprotein 1, C-terminal low-complexity region (Fmr1, Mus musculus, UniProt P35922)
Method: RNA Bind-n-Seq
Molecule type: RNA
Sample: in vitro
Tested at: 200 nM
Setting: whole 134-nt RNA, ends assumed
With: 150 mM LiCl
Baseline: input library
Direction: higher = stronger binding
Endpoint: log2 enrichment
All molecules: 7-deaza-guanosine replaces G
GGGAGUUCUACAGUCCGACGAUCUUCCUCAAGUCCUGUGCUACACAUCGUAUGUACCGAAUCGGUGGAGGUGGAAAGUAUUAUGUUACGCCGUUCGGAUCUGCACUUCCAGCAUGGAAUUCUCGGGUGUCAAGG: -0.985
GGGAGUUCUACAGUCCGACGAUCAACAGACAACACGCACCCACACAGACACAGAGGGAAGGGGUUGGGAUGGGGACAGGGUGCACAGCAGGGCGGGGUAGGACCCCAGCCCCUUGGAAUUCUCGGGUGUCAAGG: -0.163
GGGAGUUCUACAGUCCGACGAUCCCUGUGCUACACAUCGUAUGUACCGAAUCGGGGAAAAAGGGGAAAGGGGUUUUUUUGGGGAAAGUAUUAUGUUACGCCGUUCGGAUCUGCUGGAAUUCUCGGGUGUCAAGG: 0.543
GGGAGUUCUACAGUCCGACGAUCGCAGGAAGUAAAAACAAAUGGAAAUGCUUCGGAUAGUGGCAGGGGUGGGGGUUGCUAAGGAAAGGGUGGGCUGGGAGUGGGUAAAGAGUUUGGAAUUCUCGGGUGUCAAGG: 1.18
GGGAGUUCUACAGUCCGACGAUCACCAUGCAGGUGGGCAUCUUUGGGAAGUGGGGCAAGGGGGGGAUAGGGAAAGGGGUAACACUUUGGGAACAGGUGGUCCCAGGUCGUUUCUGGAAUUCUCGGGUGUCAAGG: 0.763
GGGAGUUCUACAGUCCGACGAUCUAACUUUAGAGGAGGAUCUGAUGGAUAUGGCAGUGGACGUGGAUUUGUGGAUGGCUAUAAUGGGUAUGGAGGAGGACCUGGAGGUGGCAAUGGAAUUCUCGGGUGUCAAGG: 0.847
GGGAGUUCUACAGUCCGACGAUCUGGGAGGUGGAUUUUGUUUAUUUUUUUAGCUCAUUUCCAGGGGUGGGAAUUUUUUUUUAAUAUGUGUCAUGAAUAGAGUUGUUUUUGAAAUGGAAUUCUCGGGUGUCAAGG: 0.502
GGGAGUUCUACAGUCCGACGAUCAGUCCUGUGCUACACAUCGUAUGUACCGAAUCGGGUGGGAAAAAAAGGGAAAAAGGGAAAGUAUUAUGUUACGCCGUUCGGAUCUGCACUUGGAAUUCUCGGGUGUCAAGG: -0.853

Series 4
Target: Histone acetyltransferase KAT6A, both winged helices, GST fusion (KAT6A, Homo sapiens, UniProt Q92794, residues 1-181)
Method: protein binding microarray
Molecule type: double-stranded DNA, one strand shown
Sample: in vitro
Tested at: not given
Setting: 8-mer, flanks averaged, mean of 2 arrays, mostly near background
Baseline: not given
Direction: higher = stronger binding
Endpoint: E-score
Target sequence (chain): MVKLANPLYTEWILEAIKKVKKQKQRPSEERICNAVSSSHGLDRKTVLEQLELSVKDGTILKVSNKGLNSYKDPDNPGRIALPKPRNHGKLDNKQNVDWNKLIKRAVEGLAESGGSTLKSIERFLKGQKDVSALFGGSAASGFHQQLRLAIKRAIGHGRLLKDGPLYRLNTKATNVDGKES
CGAGAGCG: 0.176
CGATCCTC: -0.00864
GGGTTTTA: 0.0468
CTATGAAA: 0.0025
AAACCTCT: -0.0254
GGCCCTTA: -0.0952
CTACGAGA: -0.214
GATGCCCC: -0.148
TAATAACA: 0.0579
TACCAAGA: 0.0281
GCCTAGAA: -0.0697
AGATGCGG: 0.0711
GATTAGAA: -0.196
AAGTCCCG: 0.174
CAATTATC: 0.0852
CTCTAATA: -0.0836
ATACTCCA: -0.158
AGGGCGCG: 0.225
CTCTGGGA: -0.112
GCATAGAA: -0.0344
CGTCTGCC: 0.137
CAGTAGTC: -0.0829
GGCTTATA: -0.102

Series 5
Target: Sal-like protein 4, full length isoform B (SALL4, Homo sapiens, UniProt Q9UJQ4-2, residues 1-616)
Method: universal PBM
Molecule type: double-stranded DNA, one strand shown
Sample: in vitro
Tested at: not given
Setting: 8-mer, flanks averaged, mean of replicates
Direction: higher = stronger binding
Endpoint: E-score
AGGACACG: -0.111
AACAAATA: 0.309
TGTAGACA: 0.119
AGTCGCCC: -0.165
CCCCCACC: -0.345
ATATGAGG: 0.24
ATCTAAAC: 0.167
CTGATGCC: -0.06
ATTAATCA: 0.331
AGAGGGAA: -0.0194
GAAGATGC: -0.142
ATGTTAGG: 0.168
CTGGCACA: -0.11
CACGCCAC: -0.177
AATGTTAC: 0.205
AGACTTCC: -0.0484
CAGGGGGC: -0.34
GGCTACCA: -0.123
ACAGGTGC: -0.129
GAATCCGC: -0.319
